Experimental data from different studies.
Each numbered part is a random draw from the data of one study; scales do not carry over between parts.

Block 1
Target: Ras GTPase-activating protein-binding protein 1, full length (G3BP1, Homo sapiens, UniProt Q13283)
Chain of UniProt Q13283 (whole entry, looked up): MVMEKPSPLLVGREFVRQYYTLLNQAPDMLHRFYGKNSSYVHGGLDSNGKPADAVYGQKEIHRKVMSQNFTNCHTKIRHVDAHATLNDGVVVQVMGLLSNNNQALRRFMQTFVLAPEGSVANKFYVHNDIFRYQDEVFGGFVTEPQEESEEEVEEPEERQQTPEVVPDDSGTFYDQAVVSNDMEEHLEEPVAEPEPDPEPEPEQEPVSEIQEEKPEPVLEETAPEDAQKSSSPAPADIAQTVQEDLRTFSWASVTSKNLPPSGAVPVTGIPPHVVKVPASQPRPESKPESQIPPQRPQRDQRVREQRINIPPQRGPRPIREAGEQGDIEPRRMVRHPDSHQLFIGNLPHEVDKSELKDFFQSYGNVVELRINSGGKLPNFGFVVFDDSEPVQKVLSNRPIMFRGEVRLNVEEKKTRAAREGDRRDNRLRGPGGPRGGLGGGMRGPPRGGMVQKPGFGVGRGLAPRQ
Technique: RNA Bind-n-Seq
Form: RNA
Matrix: in vitro
Concentration: 200 nM
Notes: whole 134-nt RNA, ends assumed
With: 150 mM LiCl
Relative to: input library
Direction: higher = stronger binding
All molecules: 7-deaza-guanosine replaces G
Strand	log2 enrichment
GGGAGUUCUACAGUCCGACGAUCUGGAAGGAACGAGCCAGGAAGAGGGACUGGAACCAUCUCAGAAGCCAUGCCCCUCAGGCUGGAACUUGCCCUGUCUCCUCGCAGAUGAGGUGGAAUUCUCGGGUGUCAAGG	-1.16
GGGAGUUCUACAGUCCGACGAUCCCUGUGCUACACAUCGUAUGUACCGAAUCGGGGUUUGGGGUUUUUUUGGGGAAAAAGGGGAAAGUAUUAUGUUACGCCGUUCGGAUCUGCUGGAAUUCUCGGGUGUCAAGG	0.373
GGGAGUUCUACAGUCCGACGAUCUAACUUUAGAGGCGGAUCUGAUGGAUAUGGCAGUGGACGUGGAUUUGGGGAUGGCUAUAAUGGGUAUGGAGGAGGACCUGGAGGUGGCAAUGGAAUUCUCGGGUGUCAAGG	-0.0829
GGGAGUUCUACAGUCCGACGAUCAGUCCUGUGCUACACAUCGUAUGUACCGAAUCAAACCCAAAUUUUUAAACCCCCAAAAAAGUAUUAUGUUACGCCGUUCGGAUCUGCACUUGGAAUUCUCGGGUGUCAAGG	1.59
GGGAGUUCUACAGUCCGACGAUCUCCUGUGCUACACAUCGUAUGUACCGAAUCGGGAAAAAAGGAAAAAAGGGGAAAAAAGGGAAAGUAUUAUGUUACGCCGUUCGGAUCUGCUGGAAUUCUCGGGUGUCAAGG	-0.223
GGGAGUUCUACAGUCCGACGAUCAAGUCCUGUGCUACACAUCGUAUGUACCGAAUCGGGAGGGUUUUUGGGUUUUUGGGAAAGUAUUAUGUUACGCCGUUCGGAUCUGCACUUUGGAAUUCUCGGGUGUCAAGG	-0.61
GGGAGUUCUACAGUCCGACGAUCUAUUCCAAUGUCUGUGGGAAUAAUUGACACAAGGACGAAUCCAAGCCAGUUAAAUGCGGUUGAAUUUCUGUGGGACCCAGCAAAACGCACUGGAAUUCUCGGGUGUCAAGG	0.0522
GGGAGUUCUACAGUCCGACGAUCCUGUGCUACACAUCGUAUGUACCGAAUCGGGGAAAAAAAGGAAAAAAAGGGGAAAAAAAGGGAAAGUAUUAUGUUACGCCGUUCGGAUCUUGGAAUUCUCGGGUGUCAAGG	0.193

Block 2
Target: Histone acetyltransferase KAT6A, winged helix 1, GST fusion (KAT6A, Homo sapiens, UniProt Q92794, residues 1-85)
Technique: protein binding microarray
Form: double-stranded DNA, one strand shown
Matrix: in vitro
Concentration: not given
Notes: 8-mer, flanks averaged, mean of 2 arrays, mostly near background
Relative to: not given
Direction: higher = stronger binding
Residues (chain): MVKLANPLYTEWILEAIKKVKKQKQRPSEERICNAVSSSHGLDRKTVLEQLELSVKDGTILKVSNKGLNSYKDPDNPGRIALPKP
Strand	E-score
AGTTAGAA	-0.0777
TACGATAA	0.0229
AATAGTGA	-0.0843
GATTACCA	0.0841
AATCTGGT	-0.237
CGCTCAAA	0.114
CGCATGGC	0.231
ATCCCACG	-0.0923
CCTTAACC	-0.0874
GCAGATCC	-0.0166
AGAGCCAT	-0.0801
CCCATCGC	0.16

Block 3
Target: Sal-like protein 4, full length isoform B (SALL4, Homo sapiens, UniProt Q9UJQ4-2, residues 1-616)
Technique: universal PBM
Form: double-stranded DNA, one strand shown
Matrix: in vitro
Concentration: not given
Notes: 8-mer, flanks averaged, mean of replicates
Direction: higher = stronger binding
Strand	E-score
AAGAATAG	0.126
AACCTCCA	-0.0153
AACTAGGA	0.111
GGCACTTA	-0.0672
ACGTGAAG	0.104
ATGAACTG	0.136
CCGATTGA	-0.115

Further values, each from its own experiment
Substance	target	test	test system	setting	how to read	measurement	value
PhoQ, residues 284 288 289 292 302 303 AQGLTV	PhoP, residues 12 14 15 18 19 GHCSL (Escherichia coli, UniProt P23836)	Sort-seq, measured: YFP reporter	E. coli	PhoQ-PhoP variant library, with: 10 µM Mg2+	relative to: high Mg2+ state, higher = stronger signaling	fold induction	19

For quick reference, copied from above (block 1):
Strand	log2 enrichment
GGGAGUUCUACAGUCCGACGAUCUCCUGUGCUACACAUCGUAUGUACCGAAUCGGGAAAAAAGGAAAAAAGGGGAAAAAAGGGAAAGUAUUAUGUUACGCCGUUCGGAUCUGCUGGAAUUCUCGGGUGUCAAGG	-0.223
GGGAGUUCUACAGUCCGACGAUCAAGUCCUGUGCUACACAUCGUAUGUACCGAAUCGGGAGGGUUUUUGGGUUUUUGGGAAAGUAUUAUGUUACGCCGUUCGGAUCUGCACUUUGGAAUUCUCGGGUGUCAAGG	-0.61
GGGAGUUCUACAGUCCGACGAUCUAUUCCAAUGUCUGUGGGAAUAAUUGACACAAGGACGAAUCCAAGCCAGUUAAAUGCGGUUGAAUUUCUGUGGGACCCAGCAAAACGCACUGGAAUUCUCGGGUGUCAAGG	0.0522
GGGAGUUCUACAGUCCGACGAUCCUGUGCUACACAUCGUAUGUACCGAAUCGGGGAAAAAAAGGAAAAAAAGGGGAAAAAAAGGGAAAGUAUUAUGUUACGCCGUUCGGAUCUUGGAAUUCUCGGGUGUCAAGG	0.193
